{"data": "Measurements from different studies", "note": "Parts stem from different laboratories: compare values within a part only. “And” joins repeats or separate records; there may be more than shown.", "UniProt P50406, sequence (whole entry, looked up)": "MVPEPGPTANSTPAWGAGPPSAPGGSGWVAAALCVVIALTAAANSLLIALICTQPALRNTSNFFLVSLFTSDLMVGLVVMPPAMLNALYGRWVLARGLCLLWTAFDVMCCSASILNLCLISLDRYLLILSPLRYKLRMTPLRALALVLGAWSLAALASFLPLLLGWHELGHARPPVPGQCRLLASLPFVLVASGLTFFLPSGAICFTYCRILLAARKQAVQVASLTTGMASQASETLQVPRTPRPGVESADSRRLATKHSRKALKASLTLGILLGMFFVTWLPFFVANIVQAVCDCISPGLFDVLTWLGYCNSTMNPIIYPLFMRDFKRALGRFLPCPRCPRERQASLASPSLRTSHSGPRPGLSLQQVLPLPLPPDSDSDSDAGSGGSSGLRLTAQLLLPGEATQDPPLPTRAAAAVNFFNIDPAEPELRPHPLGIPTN", "UniProt P61075, sequence (whole entry, looked up)": "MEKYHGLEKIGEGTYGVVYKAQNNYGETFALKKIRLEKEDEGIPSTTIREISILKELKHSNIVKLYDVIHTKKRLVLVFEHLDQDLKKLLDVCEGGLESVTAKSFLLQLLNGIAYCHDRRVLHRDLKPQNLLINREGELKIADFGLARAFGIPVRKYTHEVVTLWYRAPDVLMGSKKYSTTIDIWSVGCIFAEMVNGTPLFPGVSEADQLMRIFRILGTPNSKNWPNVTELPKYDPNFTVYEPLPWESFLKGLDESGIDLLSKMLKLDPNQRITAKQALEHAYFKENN", "UniProt P9WI81, sequence (whole entry, looked up)": "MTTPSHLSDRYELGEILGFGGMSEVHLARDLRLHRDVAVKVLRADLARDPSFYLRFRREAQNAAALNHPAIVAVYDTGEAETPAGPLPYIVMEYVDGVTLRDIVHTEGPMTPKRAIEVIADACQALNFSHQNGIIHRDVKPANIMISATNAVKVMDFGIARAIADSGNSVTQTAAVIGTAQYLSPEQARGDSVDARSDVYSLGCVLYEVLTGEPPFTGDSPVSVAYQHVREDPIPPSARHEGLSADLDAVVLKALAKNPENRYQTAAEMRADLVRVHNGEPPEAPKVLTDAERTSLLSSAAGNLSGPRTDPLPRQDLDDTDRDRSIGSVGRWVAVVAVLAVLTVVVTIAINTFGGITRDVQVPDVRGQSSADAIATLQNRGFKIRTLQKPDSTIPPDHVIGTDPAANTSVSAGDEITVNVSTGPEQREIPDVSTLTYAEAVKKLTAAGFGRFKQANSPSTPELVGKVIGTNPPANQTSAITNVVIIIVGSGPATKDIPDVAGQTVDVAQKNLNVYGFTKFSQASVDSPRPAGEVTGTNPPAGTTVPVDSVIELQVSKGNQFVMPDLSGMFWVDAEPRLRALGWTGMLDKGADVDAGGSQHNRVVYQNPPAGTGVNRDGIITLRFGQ"}
{"data": "Set 1", "Compound": "CC(C)(C)c1cnc(CSc2cnc(NC(=O)C3CCN(CCCCCSc4cccc5c4CN(C4CCC(=O)NC4=O)C5=O)CC3)s2)o1 (stereo not drawn)", "host": "Sprague-Dawley rat, male", "dose": "dose not given"}
{"route": "intraperitoneal", "time": "day -1", "body weight": "201 g and 221 g and 199 g"}
{"route": "intraperitoneal", "time": "day 4", "body weight": "215 g and 240 g and 213 g"}
{"route": "subcutaneous", "time": "day 2", "body weight": "200 g and 225 g and 224 g"}
{"route": "subcutaneous", "time": "day 3", "body weight": "226 g and 205 g and 229 g"}
{"route": "intraperitoneal", "time": "day 14", "body weight": "276 g and 318 g and 279 g"}
{"route": "subcutaneous", "time": "day 4", "body weight": "220 g and 198 g and 214 g"}
{"route": "intraperitoneal", "time": "day 1", "body weight": "205 g and 230 g and 204 g"}
{"data": "Set 2", "cell line": "mouse MPNST tumor cells", "method": "high-content nuclear imaging", "item": "cell number", "concentration": "10 µM", "time": "12 h", "notes": "mean of 2 replicates", "reference": "plate mean", "direction": "higher = more cells"}
{"SMILES": "O=c1[nH]c2ccccc2n1CCCN1CCC(n2c(=O)[nH]c3cc(Cl)ccc32)CC1", "nuclei count": "2.74 z-score"}
{"SMILES": "CC(=O)NCCc1c[nH]c2ccccc12", "nuclei count": "2.2 z-score"}
{"SMILES": "CC(C)c1c(CN(C)C(C)Cc2ccccc2)n(C)n(-c2ccccc2)c1=O (stereo not drawn)", "nuclei count": "2.09 z-score"}
{"data": "Set 3", "target": "Beta-1 adrenergic receptor (ADRB1, Homo sapiens, UniProt P08588)", "action": "agonist", "UniProt P08588, sequence (whole entry, looked up)": "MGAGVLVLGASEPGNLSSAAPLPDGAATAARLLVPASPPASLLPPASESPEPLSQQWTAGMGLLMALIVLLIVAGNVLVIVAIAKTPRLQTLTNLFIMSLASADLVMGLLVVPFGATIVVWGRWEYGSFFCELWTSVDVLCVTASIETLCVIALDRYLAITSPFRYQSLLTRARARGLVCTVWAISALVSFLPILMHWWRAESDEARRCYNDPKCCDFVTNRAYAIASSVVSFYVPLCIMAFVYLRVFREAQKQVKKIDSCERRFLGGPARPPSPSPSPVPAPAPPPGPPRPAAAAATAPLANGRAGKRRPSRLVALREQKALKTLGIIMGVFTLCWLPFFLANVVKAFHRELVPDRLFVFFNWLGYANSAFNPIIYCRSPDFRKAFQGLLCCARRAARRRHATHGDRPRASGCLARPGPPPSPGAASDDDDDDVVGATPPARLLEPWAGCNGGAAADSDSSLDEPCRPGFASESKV"}
{"Structure (SMILES)": "Cc1ccc(CNCCc2c[nH]c3ccccc23)cc1", "Emax": "54.4%"}
{"Structure (SMILES)": "CC(C)(C)NCC(O)c1ccc(O)c(O)c1 (stereo not drawn)", "Emax": "61.7%"}
{"Structure (SMILES)": "C[C@H](Cc1ccc2c(c1)OC(C(=O)O)(C(=O)O)O2)NC[C@H](O)c1cccc(Cl)c1", "Emax": "86.8%"}
{"Structure (SMILES)": "CC(Cc1cccc(C(F)(F)F)c1)NCCOC(=O)c1ccccc1 (stereo not drawn)", "Emax": "97.2%"}
{"Structure (SMILES)": "CC(CCc1ccccc1)NC(C)C(O)c1ccc(O)cc1 (stereo not drawn)", "Emax": "99.9%"}
{"Structure (SMILES)": "CNCCc1ccc(O)c(O)c1", "Emax": "92.3%"}
{"Structure (SMILES)": "C[C@H](Cc1ccc(OCC(=O)O)cc1)NC[C@H](O)c1cccc(Cl)c1", "Emax": "99.1%"}
{"data": "Other studies, line by line"}
{"SMILES": "Cc1noc([C@H]2C[C@@H](c3ccc(C(F)(F)F)cc3)CN(C(=O)N3CCS(=O)(=O)C3)C2)n1", "tested on": "pknB (Mycobacterium tuberculosis, UniProt P9WI81)", "observed": "cell-free assay", "method": "competition with immobilised ligand", "concentration": "1 µM", "endpoint": "remaining binding", "result": "82%"}
{"SMILES": "Cc1c(N2CCNCC2)nc2ccc(Br)cc2c1C(=O)NC[C@H](CCC(=O)O)c1ccccc1Cl", "tested on": "HTR6 (Homo sapiens, UniProt P50406)", "observed": "ligand displacement", "concentration": "10 µM", "endpoint": "inhibition", "result": "1.76%"}
{"SMILES": "CNC(=O)c1cc(C(=O)NC2CC2)cn(Cc2ccccc2)c1=O", "tested on": "normal-adjacent epithelium patient-derived organoids sample G", "method": "CellTiter-Glo", "concentration": "1 µM", "reference": "DMSO", "endpoint": "viability", "result": "83%"}
{"SMILES": "CNC(=O)c1ccc(Nc2ncc(C(F)(F)F)c(NCc3nccnc3N(C)S(C)(=O)=O)n2)cc1", "tested on": "CRK2 (Plasmodium falciparum, UniProt P61075)", "observed": "cell-free assay", "method": "competition with immobilised ligand", "concentration": "0.1 µM", "endpoint": "remaining binding", "result": "89%"}
{"note": "A few entries again (other studies, line by line):"}
{"SMILES": "Cc1noc([C@H]2C[C@@H](c3ccc(C(F)(F)F)cc3)CN(C(=O)N3CCS(=O)(=O)C3)C2)n1", "tested on": "pknB (Mycobacterium tuberculosis, UniProt P9WI81)", "observed": "cell-free assay", "method": "competition with immobilised ligand", "concentration": "1 µM", "endpoint": "remaining binding", "result": "82%"}
{"SMILES": "CNC(=O)c1ccc(Nc2ncc(C(F)(F)F)c(NCc3nccnc3N(C)S(C)(=O)=O)n2)cc1", "tested on": "CRK2 (Plasmodium falciparum, UniProt P61075)", "observed": "cell-free assay", "method": "competition with immobilised ligand", "concentration": "0.1 µM", "endpoint": "remaining binding", "result": "89%"}
{"SMILES": "CNC(=O)c1cc(C(=O)NC2CC2)cn(Cc2ccccc2)c1=O", "tested on": "normal-adjacent epithelium patient-derived organoids sample G", "method": "CellTiter-Glo", "concentration": "1 µM", "reference": "DMSO", "endpoint": "viability", "result": "83%"}
